Measurements gathered from unrelated publications.
Protocols differ between the studies behind these lines. Numbers after ± are the reported error.
ACHE: Acetylcholinesterase (ACHE, Homo sapiens, UniProt P22303)
ache: Acetylcholinesterase (ache, Electrophorus electricus, UniProt O42275)
cyp121: Mycocyclosin synthase (cyp121, Mycobacterium tuberculosis, UniProt P9WPP7)
inhA: Enoyl-[acyl-carrier-protein] reductase [NADH] (inhA, Mycobacterium tuberculosis, UniProt P9WGR1)

Chains of the proteins cited; added tags and fusions are not shown.
UniProt P22303, whole entry, looked up: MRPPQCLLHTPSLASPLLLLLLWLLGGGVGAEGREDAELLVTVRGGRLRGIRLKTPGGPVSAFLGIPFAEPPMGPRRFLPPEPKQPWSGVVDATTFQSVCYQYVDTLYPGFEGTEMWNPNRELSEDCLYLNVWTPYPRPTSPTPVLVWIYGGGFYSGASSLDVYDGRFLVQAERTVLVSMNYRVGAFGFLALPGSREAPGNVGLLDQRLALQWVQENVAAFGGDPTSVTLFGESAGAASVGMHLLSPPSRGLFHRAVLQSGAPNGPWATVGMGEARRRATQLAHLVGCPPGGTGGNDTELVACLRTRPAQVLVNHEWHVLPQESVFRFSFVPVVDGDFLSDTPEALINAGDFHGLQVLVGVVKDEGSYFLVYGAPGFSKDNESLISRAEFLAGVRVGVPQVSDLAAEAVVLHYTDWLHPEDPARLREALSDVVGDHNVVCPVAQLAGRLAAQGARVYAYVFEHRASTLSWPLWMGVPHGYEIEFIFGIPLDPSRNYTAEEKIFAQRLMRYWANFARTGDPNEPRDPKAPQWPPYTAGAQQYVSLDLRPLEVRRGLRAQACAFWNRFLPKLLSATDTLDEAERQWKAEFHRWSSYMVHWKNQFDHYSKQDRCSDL
UniProt O42275, whole entry, looked up: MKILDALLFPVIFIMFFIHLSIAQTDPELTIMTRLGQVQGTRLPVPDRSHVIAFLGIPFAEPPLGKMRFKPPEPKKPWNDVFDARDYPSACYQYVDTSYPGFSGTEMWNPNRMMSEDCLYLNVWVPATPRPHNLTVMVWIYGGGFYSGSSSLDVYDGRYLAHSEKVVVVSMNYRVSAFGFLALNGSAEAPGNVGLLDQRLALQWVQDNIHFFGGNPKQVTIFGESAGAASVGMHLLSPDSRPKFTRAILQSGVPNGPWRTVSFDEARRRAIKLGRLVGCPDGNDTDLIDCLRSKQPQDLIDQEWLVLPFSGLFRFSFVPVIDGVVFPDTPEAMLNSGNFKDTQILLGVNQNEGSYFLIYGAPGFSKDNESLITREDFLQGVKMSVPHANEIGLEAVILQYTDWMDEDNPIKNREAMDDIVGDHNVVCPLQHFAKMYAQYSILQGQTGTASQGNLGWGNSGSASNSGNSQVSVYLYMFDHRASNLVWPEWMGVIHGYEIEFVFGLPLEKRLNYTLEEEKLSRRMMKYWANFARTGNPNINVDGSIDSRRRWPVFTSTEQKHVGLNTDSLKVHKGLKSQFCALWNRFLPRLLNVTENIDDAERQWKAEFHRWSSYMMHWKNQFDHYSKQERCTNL
UniProt P9WPP7, whole entry: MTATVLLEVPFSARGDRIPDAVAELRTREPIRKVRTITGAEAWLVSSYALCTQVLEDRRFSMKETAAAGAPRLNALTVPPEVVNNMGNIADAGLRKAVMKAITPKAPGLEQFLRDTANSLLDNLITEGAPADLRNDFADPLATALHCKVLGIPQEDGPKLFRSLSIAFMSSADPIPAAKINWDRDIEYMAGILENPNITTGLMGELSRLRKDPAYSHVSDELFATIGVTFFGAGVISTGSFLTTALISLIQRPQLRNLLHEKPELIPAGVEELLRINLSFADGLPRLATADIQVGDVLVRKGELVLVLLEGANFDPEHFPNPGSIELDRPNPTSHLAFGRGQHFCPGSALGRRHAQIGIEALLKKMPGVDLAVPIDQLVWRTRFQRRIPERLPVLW
UniProt P9WGR1, whole entry: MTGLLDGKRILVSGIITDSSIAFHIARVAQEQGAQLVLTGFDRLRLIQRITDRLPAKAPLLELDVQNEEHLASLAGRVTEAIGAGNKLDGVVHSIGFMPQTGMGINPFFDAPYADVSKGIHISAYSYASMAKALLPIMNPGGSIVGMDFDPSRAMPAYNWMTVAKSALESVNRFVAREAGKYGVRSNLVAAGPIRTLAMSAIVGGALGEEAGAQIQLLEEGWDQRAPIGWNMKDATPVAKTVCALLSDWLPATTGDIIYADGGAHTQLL
UniProt I6WXK4, whole entry: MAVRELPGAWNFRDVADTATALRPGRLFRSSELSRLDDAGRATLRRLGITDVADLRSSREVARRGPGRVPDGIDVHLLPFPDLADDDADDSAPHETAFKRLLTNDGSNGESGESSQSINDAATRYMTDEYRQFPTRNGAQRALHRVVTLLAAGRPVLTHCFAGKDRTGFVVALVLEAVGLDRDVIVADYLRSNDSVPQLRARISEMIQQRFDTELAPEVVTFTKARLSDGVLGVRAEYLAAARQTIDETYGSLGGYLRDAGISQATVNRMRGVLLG
UniProt Q9NUW8, whole entry: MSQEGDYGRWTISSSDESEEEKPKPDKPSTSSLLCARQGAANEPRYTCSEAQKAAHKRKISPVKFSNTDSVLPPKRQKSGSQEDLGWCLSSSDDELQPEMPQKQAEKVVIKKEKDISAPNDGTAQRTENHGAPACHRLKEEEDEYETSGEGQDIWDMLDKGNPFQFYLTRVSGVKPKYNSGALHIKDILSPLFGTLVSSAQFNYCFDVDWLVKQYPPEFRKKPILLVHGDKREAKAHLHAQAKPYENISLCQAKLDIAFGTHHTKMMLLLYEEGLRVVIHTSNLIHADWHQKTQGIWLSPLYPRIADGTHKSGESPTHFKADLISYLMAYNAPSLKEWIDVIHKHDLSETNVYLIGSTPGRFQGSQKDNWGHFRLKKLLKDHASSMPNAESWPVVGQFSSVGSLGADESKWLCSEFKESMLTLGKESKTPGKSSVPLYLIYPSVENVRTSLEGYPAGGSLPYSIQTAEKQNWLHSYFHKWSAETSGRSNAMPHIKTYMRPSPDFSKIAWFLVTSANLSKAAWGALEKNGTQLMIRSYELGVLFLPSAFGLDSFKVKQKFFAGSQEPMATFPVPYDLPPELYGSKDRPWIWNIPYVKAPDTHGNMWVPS
UniProt P06276, whole entry, looked up: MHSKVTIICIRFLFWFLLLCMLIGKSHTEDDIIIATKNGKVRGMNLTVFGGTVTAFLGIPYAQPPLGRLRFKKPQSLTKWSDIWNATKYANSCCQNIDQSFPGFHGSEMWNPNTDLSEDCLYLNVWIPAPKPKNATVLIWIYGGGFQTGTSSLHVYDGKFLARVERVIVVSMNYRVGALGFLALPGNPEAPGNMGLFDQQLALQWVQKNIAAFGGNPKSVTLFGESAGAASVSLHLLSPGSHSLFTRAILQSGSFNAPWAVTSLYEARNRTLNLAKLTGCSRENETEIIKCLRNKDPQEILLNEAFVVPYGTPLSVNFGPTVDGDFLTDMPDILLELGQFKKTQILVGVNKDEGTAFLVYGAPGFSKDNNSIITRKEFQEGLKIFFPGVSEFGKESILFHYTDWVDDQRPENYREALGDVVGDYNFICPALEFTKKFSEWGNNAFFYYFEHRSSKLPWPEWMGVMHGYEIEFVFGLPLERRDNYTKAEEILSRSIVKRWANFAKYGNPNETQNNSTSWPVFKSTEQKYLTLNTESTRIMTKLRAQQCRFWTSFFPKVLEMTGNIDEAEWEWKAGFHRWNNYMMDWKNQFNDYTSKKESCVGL
UniProt Q01827, whole entry: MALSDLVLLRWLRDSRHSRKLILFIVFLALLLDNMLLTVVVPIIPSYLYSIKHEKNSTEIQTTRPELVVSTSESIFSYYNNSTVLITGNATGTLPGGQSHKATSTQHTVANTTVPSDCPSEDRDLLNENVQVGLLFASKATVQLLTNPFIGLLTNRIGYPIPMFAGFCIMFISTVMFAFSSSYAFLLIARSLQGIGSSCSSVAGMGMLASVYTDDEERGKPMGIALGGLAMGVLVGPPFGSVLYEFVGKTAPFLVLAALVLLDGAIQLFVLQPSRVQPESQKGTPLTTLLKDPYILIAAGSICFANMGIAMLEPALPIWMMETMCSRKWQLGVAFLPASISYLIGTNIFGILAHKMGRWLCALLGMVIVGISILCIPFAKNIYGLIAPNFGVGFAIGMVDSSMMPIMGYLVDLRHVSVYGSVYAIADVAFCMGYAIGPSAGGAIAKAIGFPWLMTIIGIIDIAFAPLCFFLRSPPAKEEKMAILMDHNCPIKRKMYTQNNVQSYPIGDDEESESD
UniProt Q869C3, whole entry, looked up: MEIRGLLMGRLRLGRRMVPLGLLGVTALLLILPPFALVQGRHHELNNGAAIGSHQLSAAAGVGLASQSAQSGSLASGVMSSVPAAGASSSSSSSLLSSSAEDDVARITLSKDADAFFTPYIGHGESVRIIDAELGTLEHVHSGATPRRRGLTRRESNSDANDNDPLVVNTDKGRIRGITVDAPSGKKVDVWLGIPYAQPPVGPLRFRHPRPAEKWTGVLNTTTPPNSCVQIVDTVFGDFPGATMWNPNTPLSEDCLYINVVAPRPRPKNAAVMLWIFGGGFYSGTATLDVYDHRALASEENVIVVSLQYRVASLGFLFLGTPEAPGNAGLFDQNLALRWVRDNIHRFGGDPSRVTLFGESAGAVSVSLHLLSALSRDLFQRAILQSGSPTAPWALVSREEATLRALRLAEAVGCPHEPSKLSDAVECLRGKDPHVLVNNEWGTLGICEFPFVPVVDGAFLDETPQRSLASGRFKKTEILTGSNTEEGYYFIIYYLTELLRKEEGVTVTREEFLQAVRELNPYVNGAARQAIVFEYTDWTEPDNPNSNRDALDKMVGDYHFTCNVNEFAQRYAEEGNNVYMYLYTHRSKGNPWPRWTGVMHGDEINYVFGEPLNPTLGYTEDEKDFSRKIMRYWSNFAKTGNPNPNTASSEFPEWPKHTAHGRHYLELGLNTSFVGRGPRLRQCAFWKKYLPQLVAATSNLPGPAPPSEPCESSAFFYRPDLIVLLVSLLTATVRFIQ
UniProt P23977, whole entry: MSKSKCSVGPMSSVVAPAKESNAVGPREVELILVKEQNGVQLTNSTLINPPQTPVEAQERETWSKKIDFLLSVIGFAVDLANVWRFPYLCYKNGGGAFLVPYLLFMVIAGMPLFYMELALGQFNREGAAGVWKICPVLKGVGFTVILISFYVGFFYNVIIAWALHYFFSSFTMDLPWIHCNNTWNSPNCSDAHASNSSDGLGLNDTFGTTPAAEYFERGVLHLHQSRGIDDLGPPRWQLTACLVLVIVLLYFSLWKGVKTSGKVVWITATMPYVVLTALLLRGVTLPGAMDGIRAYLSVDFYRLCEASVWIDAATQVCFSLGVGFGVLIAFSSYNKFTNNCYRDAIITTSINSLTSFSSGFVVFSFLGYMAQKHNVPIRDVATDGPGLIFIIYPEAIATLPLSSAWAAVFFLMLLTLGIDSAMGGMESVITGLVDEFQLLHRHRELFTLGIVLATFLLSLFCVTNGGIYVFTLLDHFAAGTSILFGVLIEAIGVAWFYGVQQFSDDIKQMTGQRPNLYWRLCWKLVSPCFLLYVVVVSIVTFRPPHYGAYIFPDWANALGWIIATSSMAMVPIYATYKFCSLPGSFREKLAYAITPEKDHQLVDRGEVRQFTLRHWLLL
UniProt O33336, whole entry: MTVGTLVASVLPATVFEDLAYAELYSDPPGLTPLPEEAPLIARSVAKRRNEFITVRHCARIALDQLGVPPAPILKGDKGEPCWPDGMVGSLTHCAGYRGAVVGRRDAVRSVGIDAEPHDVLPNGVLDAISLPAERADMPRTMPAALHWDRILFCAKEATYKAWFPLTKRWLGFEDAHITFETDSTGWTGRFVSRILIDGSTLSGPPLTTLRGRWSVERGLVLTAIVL
UniProt P02550, whole entry: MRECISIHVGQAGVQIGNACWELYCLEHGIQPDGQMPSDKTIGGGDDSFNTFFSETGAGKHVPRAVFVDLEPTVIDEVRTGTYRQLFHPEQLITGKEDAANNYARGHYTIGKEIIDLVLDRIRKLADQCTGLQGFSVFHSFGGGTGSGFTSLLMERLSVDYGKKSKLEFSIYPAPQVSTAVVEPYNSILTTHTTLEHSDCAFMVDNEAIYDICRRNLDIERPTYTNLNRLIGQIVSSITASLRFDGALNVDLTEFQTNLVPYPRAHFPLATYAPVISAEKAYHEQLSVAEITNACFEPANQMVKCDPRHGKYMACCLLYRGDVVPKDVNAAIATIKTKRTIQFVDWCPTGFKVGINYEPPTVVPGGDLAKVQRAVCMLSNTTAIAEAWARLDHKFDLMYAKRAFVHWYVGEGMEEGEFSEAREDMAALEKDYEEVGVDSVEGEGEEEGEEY
UniProt P02554, whole entry: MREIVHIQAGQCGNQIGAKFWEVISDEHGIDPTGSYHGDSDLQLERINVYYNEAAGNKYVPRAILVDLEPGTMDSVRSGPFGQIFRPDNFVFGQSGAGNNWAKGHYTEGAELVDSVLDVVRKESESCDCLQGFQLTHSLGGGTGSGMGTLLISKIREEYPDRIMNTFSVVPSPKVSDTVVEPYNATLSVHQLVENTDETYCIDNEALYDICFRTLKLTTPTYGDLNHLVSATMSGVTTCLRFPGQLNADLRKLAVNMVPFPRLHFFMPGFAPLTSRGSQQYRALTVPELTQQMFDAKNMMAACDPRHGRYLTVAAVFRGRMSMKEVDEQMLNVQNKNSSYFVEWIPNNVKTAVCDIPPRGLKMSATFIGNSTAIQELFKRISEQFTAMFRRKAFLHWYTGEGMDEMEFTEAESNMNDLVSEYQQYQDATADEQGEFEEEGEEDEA

The IC50 of `c1cc[n+](CCCCCCCCCC[n+]2cccc3ccccc32)cc1` is reported as 5 ± 1 nM (ACHE; enzyme activity, inhibitor).
With `CCN1CCN(c2nnc(-c3ccccn3)s2)CC1` the IC50 was 634000 ± 67000 nM (ache; enzyme activity, inhibitor, Ellman; 10 min preincubation, pH 8, 23 °C).
With `O=C(O)c1cc2cc(Cl)cc(OCc3cn(CCC(=O)N4CCC(c5ccc(Cl)c(Cl)c5)CC4)nn3)c2c(Cl)c1OCc1cn(CCC(=O)N2CCC(c3ccc(Cl)c(Cl)c3)CC2)nn1` the IC50 was 160 ± 10 nM (Triple specificity protein phosphatase PtpB (ptpB, Mycobacterium tuberculosis, UniProt I6WXK4); inhibitor; pH 7).
`N#Cc1ccc(-c2ccc(COCCc3ccc(-c4nc5ccccn5c4Nc4ccc(C(=O)O)cc4)cc3)cc2)nc1` gave an IC50 of 25100 ± 1250 nM (Tyrosyl-DNA phosphodiesterase 1 (TDP1, Homo sapiens, UniProt Q9NUW8); enzyme activity, inhibitor).
The Kd of `Fc1ccc(-c2ccc(Cn3ccnc3)cc2F)cc1` is reported as 7400 ± 800 nM (cyp121; binding).
For `CCc1ccc(Oc2ccc(Cl)cc2Cl)c(O)c1`, the IC50 was 120 ± 19 nM (inhA; inhibitor).
`Cc1ccc(NC2CCCC(C(=O)N3CCc4ccccc4C3)C2)cc1` (stereo not shown) has an IC50 of 393000 ± 27000 nM (ache; enzyme activity, inhibitor, Ellman; 10 min preincubation, pH 8, 23 °C).
`CC(C)(C)c1cc[n+](COC[n+]2ccc(C(C)(C)C)cc2)cc1` gave an IC50 of 75000 ± 12000 nM (Cholinesterase (BCHE, Homo sapiens, UniProt P06276); enzyme activity, inhibitor).
The IC50 of `CC[C@H]1C[C@@H]2C[C@H]3c4c(c5cc(C#N)ccc5n4C)CCN(C2)[C@@H]13` is reported as 1320 ± 145 nM (Synaptic vesicular amine transporter (Slc18a2, Rattus norvegicus, UniProt Q01827); [3H]5-HT uptake, inhibitor; rat brain synaptic vesicles; added: [3H]5-HT).
For `C=CC[N+](C)(C)c1ccc(CCC(=O)CCc2ccc([N+](C)(C)CC=C)cc2)cc1`, the IC50 was 199 nM (Acetylcholinesterase (Ace, Anopheles gambiae, UniProt Q869C3); enzyme activity, inhibitor, Ellman; 10 min, room temperature, added: acetylthiocholine).
`CCCNC(C)Cc1ccccc1` (stereo not shown) has an IC50 of 1010 ± 101 nM (Sodium-dependent dopamine transporter (Slc6a3, Rattus norvegicus, UniProt P23977); dopamine uptake, inhibitor; rat brain synaptosomes; added: [3H]dopamine).
`C#CCOCCC(=O)N[C@H](Cc1ccccc1)C(=O)N[C@@H](Cc1ccccc1)C(=O)N[C@@H](CCCNC(N)=O)C(=O)CCl` has an IC50 of 25 ± 5 nM (Replicase polyprotein 1ab, main protease (rep, Severe acute respiratory syndrome coronavirus 2, UniProt P0DTD1); enzyme activity, inhibitor; near enzyme concentration).
The IC50 of `C#CCN(Cc1ccc2nc(C)[nH]c(=O)c2c1)c1ccc(C(=O)N[C@@H](CCC(=O)OCC)C(=O)OCC)cc1` is reported as 10000 nM (4'-phosphopantetheinyl transferase PptT (Mycobacterium tuberculosis, UniProt O33336); enzyme activity, inhibitor, fluorescence polarization).
`CCCc1ccc(Oc2ccc(Cl)cc2Cl)c(O)c1` has an IC50 of 91 ± 15 nM (inhA; inhibitor).
The IC50 of `CC[C@H](C)[C@@H]([C@@H](CC(=O)N1CCC[C@H]1[C@H](OC)[C@@H](C)C(=O)NCCc1ccccc1)OC)N(C)C(=O)[C@@H](NC(=O)[C@H](C(C)C)N(C)C)C(C)C` [isotope labelled] is reported as 2200 ± 600 nM (Tubulin alpha-1A/beta chain (Sus scrofa, UniProt P02550+P02554); microtubule polymerization, inhibitor; 30 min, 37 °C).
`O=C(O)c1ccc(Oc2ccc(Cl)cc2Cl)c(O)c1` gave an IC50 of > 10000 nM (inhA; inhibitor).
`CCC(c1ccc(-c2ccc3sccc3c2)cc1)n1ccnc1` (stereo not shown) gave a Kd of 2700 ± 520 nM (cyp121; binding).
With `CCCCc1ccc(Oc2ccc(Cl)cc2Cl)c(O)c1` the IC50 was 55 ± 20 nM (inhA; inhibitor).
With `c1ccc2c(c1)ccc[n+]2CCCCCCCCCC[n+]1cccc2ccccc21` the IC50 was 1 ± 0.2 nM (ACHE; enzyme activity, inhibitor).

Excerpt of the above:
`CCCNC(C)Cc1ccccc1` (stereo not shown) has an IC50 of 1010 ± 101 nM (Sodium-dependent dopamine transporter (Slc6a3, Rattus norvegicus, UniProt P23977); dopamine uptake, inhibitor; rat brain synaptosomes; added: [3H]dopamine).
`C#CCOCCC(=O)N[C@H](Cc1ccccc1)C(=O)N[C@@H](Cc1ccccc1)C(=O)N[C@@H](CCCNC(N)=O)C(=O)CCl` has an IC50 of 25 ± 5 nM (Replicase polyprotein 1ab, main protease (rep, Severe acute respiratory syndrome coronavirus 2, UniProt P0DTD1); enzyme activity, inhibitor; near enzyme concentration).
